Measured values from different studies.
± gives the spread as reported.

C#C[C@]1(O)CC[C@H]2[C@@H]3CCC4=CC(=O)CC[C@@H]4[C@H]3CC[C@@]21CC
terminal half-life (human female; oral, single dose oral contraceptive, cpd alone): 37.7 ± 6.5 h

CN(CC#N)C(=O)C[C@H](Nc1nc2ccccc2[nH]1)c1cccc(C(F)(F)F)c1
terminal half-life (human; intravenous infusion, 4 mg/kg, 1 mg/mL formulation): 3.99 ± 0.95 h

CC(=O)N(C)[C@H]1CCN(C(=O)c2cnc3c(c2)C[C@](C)(c2ccc(F)cc2)N3)C1
terminal half-life (human, male, plasma; oral, dose not given, single and multiple doses): ~24 h

N#Cc1cc(NC(=O)[C@H]2c3ccccc3C(=O)N(CC(F)(F)F)[C@@H]2c2cccnc2)ccc1F
terminal half-life (human; oral, median, interim, dose-independent): ~18 h

Cc1cc(Nc2ccc(S(F)(F)(F)(F)F)cc2)n2nc(C(C)(F)F)nc2n1
terminal half-life (LC-MS/MS; human vivax malaria patients, plasma; oral, 600 mg, mean): 91.3 h

Cc1cc(-c2nnc(N)nc2-c2ccc(F)cc2)cc(Cl)n1
terminal half-life (human patients, plasma; oral, 100 mg nanosuspension once daily, multiple doses, arithmetic mean): 7.8 h

Cc1[nH]c(/C=C2\C(=O)Nc3ccc(F)cc32)c(C)c1C(=O)N[C@H]1CCN(C(=O)N(C)C)C1
terminal half-life (human patients, plasma; oral, 200 mg single dose, with: everolimus 5 mg): 12.9 ± 7.5 h

CC1(C)CC[C@]2(NC(=O)C(C)(F)F)CC[C@]3(C)[C@H](C(=O)C=C4[C@@]5(C)C=C(C#N)C(=O)C(C)(C)[C@@H]5CC[C@]43C)[C@@H]2C1
terminal half-life (human, plasma; oral, 150 mg single dose, alone, geometric mean): 66.7 h

C[C@@H](c1ccc2nccn2c1)n1nnc2ncc(-c3cnn(C)c3)nc21
terminal half-life (noncompartmental analysis; human, plasma; oral, 300 mg, cycle 2 day 1, multiple dosing): 3.21 h

C[C@@]1(c2cc(NC(=O)c3ccc(C#N)cn3)ccc2F)C=CSC(N)=N1
terminal half-life (elderly humans, both sexes, plasma; oral, 150 mg single dose, mean): 15.1 h

CC[C@H](C)[C@H](NC(=O)[C@H](Cc1ccccc1)NC(=O)[C@H](CCC(=O)O)NC(=O)[C@H](CCCCNC(=O)COCCOCCNC(=O)COCCOCCNC(=O)CC[C@H](NC(=O)CCCCCCCCCCCCCCCCC(=O)O)C(=O)O)NC(=O)[C@H](C)NC(=O)[C@H](C)NC(=O)[C@H](CCC(N)=O)NC(=O)CNC(=O)[C@H](CCC(=O)O)NC(=O)[C@H](CC(C)C)NC(=O)[C@H](Cc1ccc(O)cc1)NC(=O)[C@H](CO)NC(=O)[C@H](CO)NC(=O)[C@@H](NC(=O)[C@H](CC(=O)O)NC(=O)[C@H](CO)NC(=O)[C@@H](NC(=O)[C@H](Cc1ccccc1)NC(=O)[C@@H](NC(=O)CNC(=O)[C@H](CCC(=O)O)NC(=O)C(C)(C)NC(=O)[C@@H](N)Cc1cnc[nH]1)[C@@H](C)O)[C@@H](C)O)C(C)C)C(=O)N[C@@H](C)C(=O)N[C@@H](Cc1c[nH]c2ccccc12)C(=O)N[C@@H](CC(C)C)C(=O)N[C@H](C(=O)N[C@@H](CCCNC(=N)N)C(=O)NCC(=O)N[C@@H](CCCNC(=N)N)C(=O)NCC(=O)O)C(C)C
terminal half-life (human, plasma; oral, 14 mg once daily, geometric mean): 154 h

Cc1ccc(=O)n(-c2ccccc2)c1
terminal half-life (healthy human; oral, 600 mg single, alone): 2.51 h

COc1nnc2ccc(N3CCC(c4ccc(OCCN5CCN(C)C(=O)[C@H]5C)cc4)CC3)nn12
terminal half-life (human, plasma; oral, 30 mg once daily, single dose, monotherapy): 2.64 h

C#C[C@]1(CO)O[C@@H](n2cnc3c(N)nc(F)nc32)C[C@@H]1O
terminal half-life (human, plasma; oral): 50 to 60 h

C=CC(=O)N1C[C@H](Nc2ncnc3[nH]ccc23)CC[C@@H]1C
terminal half-life (human, plasma; oral, 50 mg single dose, alone without rifampicin): 1.2 ± 0.2 h

CN1C(=O)[C@@H](NC(=O)c2nnc(Cc3ccccc3)[nH]2)COc2cccnc21
terminal half-life (human, plasma; oral, 200 mg once daily, day 14, geometric mean): 6.61 h

Cn1cc(-c2ccc(S(=O)(=O)[C@@H]3C[C@@H](C(=O)NC4(C#N)CC4)N(C(=O)C4(C(F)(F)F)CC4)C3)c(C(F)(F)F)c2)cn1
terminal half-life (noncompartmental; human, both sexes, plasma; oral, 600 mg single dose, fasted): 13.3 h

Cc1cc(-c2nccc3c2ccn3CC(=O)Nc2ccc(-c3cnccn3)cn2)ccn1
terminal half-life (human, plasma; oral, 40 mg single dose, geometric mean): 11.4 h

Cc1ccc(C(=O)N(CCCN)C(c2nc3snc(C)c3c(=O)n2Cc2ccccc2)C(C)C)cc1 (stereo not drawn)
terminal half-life (human; intravenous, all doses pooled, course day 3 following induction, arithmetic mean): 17.1 h

C#C[C@]1(O)CC[C@H]2[C@@H]3CCc4cc(O)ccc4[C@H]3CC[C@@]21C
terminal half-life (human female; single dose oral contraceptive, cpd alone): 19 ± 3 h

CCCn1cc(C)c2c(=O)[nH]c(-c3cc(S(=O)(=O)N4CCN(CC)CC4)ccc3OCC)nc21
terminal half-life (LC-MS/MS; human, plasma; dose not given, mean, crossover trial): 4.6 h

Excerpt of the above:
Cc1cc(Nc2ccc(S(F)(F)(F)(F)F)cc2)n2nc(C(C)(F)F)nc2n1
terminal half-life (LC-MS/MS; human vivax malaria patients, plasma; oral, 600 mg, mean): 91.3 h

CN(CC#N)C(=O)C[C@H](Nc1nc2ccccc2[nH]1)c1cccc(C(F)(F)F)c1
terminal half-life (human; intravenous infusion, 4 mg/kg, 1 mg/mL formulation): 3.99 ± 0.95 h

CCCn1cc(C)c2c(=O)[nH]c(-c3cc(S(=O)(=O)N4CCN(CC)CC4)ccc3OCC)nc21
terminal half-life (LC-MS/MS; human, plasma; dose not given, mean, crossover trial): 4.6 h
